Published values of several laboratories.
Lines come from different studies, so protocols differ. ± gives the spread as reported.

Cc1cc(C)c(CNC(=O)c2cc(Cl)c3c(c2C)O[C@@](C)([C@H]2CC[C@H](N(C)C)CC2)O3)c(=O)[nH]1 has a Ctrough of 205 ng/mL (human NHL patients, plasma; oral, 200 mg/day, 15 day).
With C[C@H]1O[C@@H](O[C@H]2[C@@H](O)C[C@H](O[C@H]3[C@@H](O)C[C@H](O[C@H]4CC[C@@]5(C)[C@H](CC[C@@H]6[C@@H]5C[C@@H](O)[C@]5(C)[C@@H](C7=CC(=O)OC7)CC[C@]65O)C4)O[C@@H]3C)O[C@@H]2C)C[C@H](O)[C@@H]1O the Ctrough was 0.683 ng/mL (human, plasma; 0.375 mg, alone, geometric mean).
The Ctrough of NCCONC(=O)[C@@H]1CC[C@@H]2CN1C(=O)N2OS(=O)(=O)O is reported as 5780 to 6120 ng/mL (human, plasma; intravenous infusion, 2 g, days 7 to 9, multiple dosing, range of means).
With Cc1cc(Nc2cc3ncccc3c(N[C@@H]3C[C@H]4CC[C@@H](C3)N4CCC#N)n2)n[nH]1 the Ctrough was 0.701 ng/mL (human; 270 mg, day 14, geometric mean).
COc1cc(-c2cnc3cc(OCCN4CCOCC4)ccn23)cc2c1C(=O)N(CC(F)(F)F)CC2 has a Ctrough of 52.2 ng/mL (LC-MS; human, plasma; oral, 350 mg once daily, day 6, co-dosed with methotrexate; arithmetic mean).
The Ctrough of CC(=O)c1c(C)c2cnc(Nc3ccc(N4CCNCC4)cn3)nc2n(C2CCCC2)c1=O is reported as 104 ng/mL (LC-MS/MS; human, plasma; oral, 75 mg, cycle 1 day 15, together with: neratinib 160 mg).
COc1ccc([C@@H](O)c2cc(-c3ncnc4cc(N5CCOCC5)ccc34)c(F)cc2Cl)nn1 gave a Ctrough of 126 ng/mL (LC-MS; human, plasma; oral, 100 mg twice daily, multiple dose, geometric mean).
Cn1ncnc1[C@H]1c2n[nH]c(=O)c3cc(F)cc(c23)N[C@@H]1c1ccc(F)cc1 gave a Ctrough of 3.8 ± 1.9 ng/mL (human patients, plasma; oral, 600 µg/m2/day, day 6).
For Cl.[2H]C([2H])([2H])CC(=O)c1cnc(NC(=O)C2CC2)cc1Nc1cccc(-c2ncn(C([2H])([2H])[2H])n2)c1OC, the Ctrough was 10.9 ng/mL (human, fasted, multiple dose; oral, 10 mg once daily, liquid formulation, day 7, geometric mean).
